{"data": "Experimental data from different studies", "organism": "Influenza A virus", "note": "Lines come from different studies, so protocols differ. ± marks the error that the study gave."}
{"SMILES": "CCOC(=O)C1=C[C@@H](OC(CC)CC)[C@H](NC(C)=O)[C@@H](NCCCCCCCCC(=O)Nc2cccc3c2C(=O)N(C2CCC(=O)NC2=O)C3=O)C1 (some centres unmarked)", "observed": "viral replication", "cell line": "MDCK", "strain": "H1N1", "EC50": "1.84 ± 0.23 µM"}
{"SMILES": "CN(C)C12C3CCC4C3C3C(CCC31)C42", "observed": "viral replication", "cell line": "MDCK", "strain": "H1N1 A/PR/8/34", "EC50": "19 µM"}
{"SMILES": "Ic1ccc(CNC23CC4CC(CC(C4)C2)C3)s1", "observed": "viral replication", "technique": "plaque reduction", "cell line": "MDCK", "strain": "A/Udorn/72 wild-type M2", "EC50": "4 µM"}
{"SMILES": "Cc1ncsc1-c1ccc([C@H](C)NC(=O)[C@@H]2C[C@@H](O)CN2C(=O)[C@@H](N)C(C)(C)C)cc1", "observed": "viral replication", "cell line": "MDCK", "strain": "H1N1", "EC50": "> 50 µM"}
{"SMILES": "COc1cc(-c2oc3cc(O)cc(O)c3c(=O)c2O[C@@H]2O[C@H](CO[C@@H]3O[C@@H](C)[C@H](O)[C@@H](O)[C@H]3O)[C@@H](O)[C@H](OC(C)=O)[C@H]2O)ccc1O", "observed": "viral replication", "cell line": "MDCK", "strain": "A/Vladivostok/2/09(H1N1)", "EC50": "285.3 ± 0.72 µM"}
{"SMILES": "CCOC(=O)C1=C[C@@H](OC(CC)CC)[C@H](NC(C)=O)[C@@H](NCCCCCCCCC(=O)N[C@H](C(=O)N2C[C@@H](O)C[C@H]2C(=O)N[C@@H](C)c2ccc(-c3scnc3C)cc2)C(C)(C)C)C1", "observed": "viral replication", "cell line": "MDCK", "strain": "H1N1", "EC50": "> 50 µM"}
{"SMILES": "COc1cc(-c2oc3cc(O[C@@H]4O[C@@H](C)[C@H](O)[C@@H](O)[C@H]4O)cc(O)c3c(=O)c2O[C@@H]2O[C@H](COC(=O)c3cc(O)c(O)c(O)c3)[C@@H](O)[C@H](O)[C@H]2OC(=O)c2cc(O)c(O)c(O)c2)ccc1O", "observed": "viral replication", "cell line": "MDCK", "strain": "A/Vladivostok/2/09(H1N1)", "EC50": "129.3 ± 0.8 µM"}
{"SMILES": "COC1(C)OC(=O)C(c2ccc(C)cc2)=C1N1CCOCC1 (centres unmarked)", "cell line": "MDCK", "strain": "H1N1 A/Weiss/43", "time": "72 h", "EC50": "14.1 ± 2.5 µM"}
{"SMILES": "Clc1ccc(CNC23CC4CC(CC(C4)C2)C3)s1", "observed": "viral replication", "technique": "plaque reduction", "cell line": "MDCK", "strain": "A/Udorn/72 wild-type M2", "EC50": "3.8 µM"}
{"SMILES": "CN(Cc1ccccc1)CC12C3CCC4C3C3C(CCC31)C42", "observed": "viral replication", "cell line": "MDCK", "strain": "H3N2 A/HK/7/87", "EC50": "> 100 µM"}
{"SMILES": "COC1=C(c2ccc(F)cc2)C(=O)OC1(C)OC (centres unmarked)", "cell line": "MDCK", "strain": "H1N1 A/Weiss/43", "time": "72 h", "EC50": "16.2 ± 1.7 µM"}
{"SMILES": "C1CC2C3C4C5CCC4C24CNCC54C13", "observed": "viral replication", "strain": "A/Ishikawa/7/82 (H3N2)", "EC50": "> 100 µM"}
{"SMILES": "CCOC(=O)C1=C[C@@H](OC(CC)CC)[C@H](NC(C)=O)[C@@H](NCCCCCCCC(=O)Nc2cccc3c2C(=O)N(C2CCC(=O)NC2=O)C3=O)C1 (some centres unmarked)", "observed": "viral replication", "cell line": "MDCK", "strain": "H1N1", "EC50": "2.03 ± 0.02 µM"}
{"SMILES": "CNCC12C3CCC4C3C3C(CCC31)C42", "observed": "viral replication", "action": "inhibitor", "strain": "H3N2", "EC50": "> 100 µM"}
{"SMILES": "COc1ccc(C2=C(N3CCC(O)CC3)C(C)(OC)OC2=O)cc1 (centres unmarked)", "cell line": "MDCK", "strain": "H1N1 A/Weiss/43", "time": "72 h", "EC50": "> 100 µM"}
{"SMILES": "COc1cc(-c2oc3cc(O[C@@H]4O[C@H](CO)[C@@H](O)[C@H](O)[C@H]4O)cc(O)c3c(=O)c2O[C@@H]2O[C@H](CO[C@@H]3O[C@@H](C)[C@H](OC(C)=O)[C@@H](O)[C@H]3OC(C)=O)[C@@H](O)[C@H](O)[C@H]2O)ccc1O", "observed": "viral replication", "cell line": "MDCK", "strain": "A/Vladivostok/2/09(H1N1)", "EC50": "109.2 ± 0.92 µM"}
{"SMILES": "CCN(CC)CC12C3CCC4C3C3C(CCC31)C42", "observed": "viral replication", "cell line": "MDCK", "strain": "H1N1 A/PR/8/34", "EC50": "> 100 µM"}
{"SMILES": "COc1cc(-c2oc3cc(O)cc(O)c3c(=O)c2O[C@@H]2O[C@H](CO)[C@@H](O)[C@H](O)[C@H]2OC(=O)c2cc(O)c(O)c(O)c2)ccc1O", "observed": "viral replication", "cell line": "MDCK", "strain": "A/Vladivostok/2/09(H1N1)", "EC50": "14.9 ± 0.07 µM"}
{"SMILES": "CCC1(CC)C2CC3CC(C2)CC1(NC)C3", "observed": "viral replication", "cell line": "MDCK", "strain": "A/FM/1/47 (H1N1)", "EC50": "9.3 ± 0.3 µM"}
{"SMILES": "COc1cccc(CNC(=O)c2cc(C(C)(C)C)nn2C)c1OC", "observed": "viral replication", "cell line": "MDCK", "strain": "A/WSN/33", "EC50": "< 1 µM"}
{"note": "Excerpt of the above:"}
{"SMILES": "CN(Cc1ccccc1)CC12C3CCC4C3C3C(CCC31)C42", "observed": "viral replication", "cell line": "MDCK", "strain": "H3N2 A/HK/7/87", "EC50": "> 100 µM"}
{"SMILES": "Ic1ccc(CNC23CC4CC(CC(C4)C2)C3)s1", "observed": "viral replication", "technique": "plaque reduction", "cell line": "MDCK", "strain": "A/Udorn/72 wild-type M2", "EC50": "4 µM"}
